Results of several laboratories.
Lines come from different studies, so protocols differ. Values joined by “and” are separate records of one study, mostly repeats; a detail may differ. ± gives the spread as reported.
ESR1: Estrogen receptor (ESR1, Homo sapiens, UniProt P03372)
WD repeat-containing protein 91 WD40 domain, residues 392–747: WD repeat-containing protein 91, WD40 domain, residues 392–747 (Homo sapiens, UniProt A4D1P6)
Genome polyprotein NS3 helicase domain: Genome polyprotein, NS3 helicase domain (Hepatitis C virus genotype 1b, UniProt Q9WMX2)

SMILES | target | test | system | conditions | scale | endpoint | result
Nc1ncnc2c1ncn2[C@@H]1O[C@H](COP(=O)(O)OP(=O)(O)OP(=O)(O)O)[C@@H](O)[C@H]1O | Hexokinase-3 (HK3, Homo sapiens, UniProt P52790, D264A/R265A) | substrate |  | mutant D264A/R265A, added: glucose 0.5 mM |  | kcat | 46 ± 24 s⁻¹
CN1C(=O)C(c2c(-c3ccc(Cl)cc3)[nH]c3c2c(=O)[nH]c(=O)n3C)c2ccccc21 (centres unmarked) | WD repeat-containing protein 91 (Homo sapiens, UniProt A4D1P6) | binding, SPR steady state |  | 15 µM |  | SPR response | 27.5 RU
COc1cccc2c(Nc3ccc4[nH]c(C(=O)N/N=C/c5ccc(SC)cc5)cc4c3)cc(C)nc12 | RORC (Homo sapiens, UniProt P51449) | reporter gene, Gal4 hybrid reporter |  | 3 µM | relative to: vehicle | activation | 0.95 fold
COc1ccc(-c2coc3cc(O)ccc3c2=O)cc1 | ESR1 | array formation | PRL-HeLa |  | relative to: EC50 ERβ over EC50 ERα | selectivity ratio | 0.527
Nc1nc2c(ncn2[C@@H]2O[C@H](COP(=O)(O)O)[C@@H](O)[C@H]2O)c(=O)[nH]1 | GUK1 (Homo sapiens, UniProt Q16774, Y81A) | enzyme activity, NADH-coupled |  | 500 µM |  | reaction rate | 3.41 s⁻¹ and 2.92 s⁻¹ and 3.29 s⁻¹
O=C(COP(=O)(O)O)[C@@H](O)[C@H](O)[C@H](O)COP(=O)(O)O | Structural maintenance of chromosomes protein 1A (Homo sapiens, UniProt Q14683) | thermal proteome profiling, measured: SMC1A | HepG2 cell lysate | concentration not given, 57 over 37 °C, mean | relative to: compound over control | thermal stability ratio | 0.632
CC[C@@H](C)[C@@H](NC(=O)[C@@H](Cc1ccc(O)cc1)NC(=O)[C@H]1CCCN1C(=O)[C@@H](CCCNC(=N)N)NC(=O)[C@H](N)Cc1c[nH]cn1)C(=O)N[C@H](C)C(=O)N[C@H](Cc1c[nH]cn1)C(=O)N[C@H](CCCNC(=N)N)C(=O)N[C@@H](C(=O)N[C@H](Cc1ccc(O)cc1)C(=O)N[C@H](CO)C(=O)N[C@H](Cc1ccccc1)C(N)=O)C(C)C | Transferrin receptor protein 1 (Tfrc, Mus musculus, UniProt Q62351) | flow cytometry | DC2.4 | 2 h, pH 6, replicate 1, unit not given | relative to: 0 h | surface TFRC expression | 0.996
O=C(N[C@@H]1CCc2cc(Cl)ccc21)c1cccc(-c2cnco2)c1 | WD repeat-containing protein 91 WD40 domain, residues 392–747 | SPR |  | 45 µM |  | binding | -26% and -2%
Cc1[nH]c(=O)c(C#N)cc1-c1ccncc1 | PDE3A (Homo sapiens, UniProt Q14432) | enzyme activity |  |  |  | Hill coefficient | 0.6
CC(=O)NCCCC[C@H](NC(=O)CNC(=O)[C@H](CCCNC(=N)N)NC(C)=O)C(=O)Nc1ccc2c(C)cc(=O)oc2c1 | human K353L/Y782F mutant enzyme | substrate, fluorogenic |  |  |  | Km | 52 ± 6 µM
Cn1c(=O)c2[nH]c(-c3ccc(S(=O)(=O)O)cc3)nc2n(C)c1=O | Genome polyprotein NS3 helicase domain | DNA binding, inhibitor | hepatitis C virus | 100 µM, added: Cy5-dT15 DNA |  | inhibition | 0%
O=c1nc(SCc2cc(F)cc(C(F)(F)F)c2)nc(SCc2ccc3sccc3c2)[nH]1 | TOP2A (Homo sapiens, UniProt P11388) | decatenation |  | 15.6 µM, replicate 2 |  | decatenated DNA | 0.17%
CC[C@@H]1[C@H](F)C(=O)N[C@@H]1COc1nccc2cc(C(N)=O)c(OC)cc12 | MAP2K4 (Homo sapiens, UniProt P45985) | ATP-site probe binding, ActivX profiling | THP-1 cell lysate | 0.04 mM, Lys1 site |  | inhibition | -17.8%
CC1=C(/C=C/C(C)=C/C=C/C(C)=C/C=C/C=C(C)/C=C/C=C(C)/C=C/C2=C(C)CCCC2(C)C)C(C)(C)CCC1 | Beta-lactoglobulin (LGB, Bos taurus, UniProt P02754) | isothermal titration calorimetry |  | concentration not given |  | binding stoichiometry | 1
CC(=O)c1cccc(OCc2cn(-c3ccc(C(=O)N4CCC(C#N)CC4)cc3)nn2)c1 | WD repeat-containing protein 91, residues 392–747 (Homo sapiens, UniProt A4D1P6) | SPR dose-response titration |  | concentration not given, 1:1 binding model |  | binding | 93% and 99%
NC(=O)C1=CN([C@@H]2O[C@H](COP(=O)(O)OP(=O)(O)OC[C@H]3O[C@@H](n4cnc5c(N)ncnc54)[C@H](O)[C@@H]3O)[C@@H](O)[C@H]2O)C=CC1 | ancestral FSP1 | oxidoreductase activity, substrate |  | added: co-substrate 100 µM fixed |  | kcat | 10.7 ± 0.5 s⁻¹

SMILES | target | test | system | conditions | scale | endpoint | result
Nc1ccc(C(=O)O)cc1 | BEST1, with wild-type BEST1 (Homo sapiens, UniProt O76090, Q293K) | ion current, whole-cell patch clamp | HEK293 co-expressing mutant and wild-type | concentration not given, voltage -100 mV |  | current density | -12.2 pA/pF and -14.3 pA/pF and -16.3 pA/pF and -12.1 pA/pF and -3.57 pA/pF and -41.5 pA/pF
Nc1ncnc2c1ncn2[C@@H]1O[C@H](C[C@@H](N)CC[C@H](N)C(=O)O)[C@@H](O)[C@H]1O | O-methyltransferase (Sorghum bicolor, UniProt A0A1B6PFV1) | isothermal titration calorimetry |  | concentration not given, apo protein |  | ΔG of binding | -7.29 kcal/mol
CC[C@H](C)[C@H](NC(=O)[C@H](CCCCN)NC(=O)CNC(=O)[C@@H](NC(=O)[C@@H](NC(=O)[C@H](CCSC)NC(=O)[C@H](Cc1c[nH]cn1)NC(=O)CN)[C@@H](C)O)C(C)C)C(=O)N[C@@H](Cc1ccc(O)cc1)C(=O)N[C@@H](C)C(=O)N[C@@H](C)C(=O)N[C@@H](CCSC)C(=O)N[C@@H](CCSC)C(=O)N[C@H](C(=O)N[C@@H](CCSC)C(=O)N[C@@H](CCC(=O)O)C(=O)N[C@@H](Cc1ccc(O)cc1)C(=O)N[C@@H](Cc1ccc(O)cc1)C(=O)N[C@@H](CCCNC(=N)N)C(=O)N[C@@H](CCC(N)=O)C(=O)N[C@@H](CO)C(=O)N[C@@H](CCCCN)C(=O)N[C@@H](C)C(=O)N[C@@H](CCCCN)C(=O)N[C@@H](CCCCN)C(=O)N[C@@H](CC(C)C)C(=O)N[C@@H](CCC(N)=O)C(=O)N[C@@H](C)C(=O)N[C@@H](CCSC)C(=O)N[C@@H](CCCNC(=N)N)C(=O)O)[C@@H](C)CC | Calmodulin-1, Ca2+-bound N-lobe (CALM1, Homo sapiens, UniProt P0DP23) | binding, isothermal titration calorimetry |  | pH 7.4, 15 °C, N-lobe, CaV2.1 IQ domain, added: Ca2+ |  | ΔS | 14.7 ± 1.4 cal/mol/K
COC(=O)[C@H]1[C@H]2C[C@H]3c4[nH]c5ccccc5c4CCN3C[C@H]2CC[C@@H]1O | Genome polyprotein NS3 helicase domain | DNA binding, inhibitor | hepatitis C virus | 100 µM, added: Cy5-dT15 DNA |  | inhibition | 0%
CC[C@H](C)[C@H](NC(=O)[C@H](CCCCN)NC(=O)CNC(=O)[C@@H](NC(=O)[C@@H](NC(=O)[C@H](CCSC)NC(=O)[C@H](Cc1c[nH]cn1)NC(=O)CN)[C@@H](C)O)C(C)C)C(=O)N[C@@H](Cc1ccc(O)cc1)C(=O)N[C@@H](C)C(=O)N[C@@H](C)C(=O)N[C@@H](CCSC)C(=O)N[C@@H](CCSC)C(=O)N[C@H](C(=O)N[C@@H](CCSC)C(=O)N[C@@H](CCC(=O)O)C(=O)N[C@@H](Cc1ccc(O)cc1)C(=O)N[C@@H](C)C(=O)N[C@@H](CCCNC(=N)N)C(=O)N[C@@H](CCC(N)=O)C(=O)N[C@@H](CO)C(=O)N[C@@H](CCCCN)C(=O)N[C@@H](C)C(=O)N[C@@H](CCCCN)C(=O)N[C@@H](CCCCN)C(=O)N[C@@H](CC(C)C)C(=O)N[C@@H](CCC(N)=O)C(=O)N[C@@H](C)C(=O)N[C@@H](CCSC)C(=O)N[C@@H](CCCNC(=N)N)C(=O)O)[C@@H](C)CC | Calmodulin-1, Ca2+-bound C-lobe (CALM1, Homo sapiens, UniProt P0DP23) | binding, isothermal titration calorimetry |  | pH 7.4, 15 °C, C-lobe, CaV2.1 IQ domain, added: Ca2+ |  | ΔS | 25.4 ± 3.7 cal/mol/K
N[C@@H](Cc1ccc(O)cc1)C(=O)O | N-alpha-acetyltransferase 80 (NAA80, Homo sapiens, UniProt Q93015) | substrate, DTNB |  | 2 mM, 30 min, 37 °C, added: acetyl-CoA 500 µM |  | product formation | 4.12 µM
NS(=O)(=O)Cc1noc2ccccc12 | Genome polyprotein NS3 helicase domain | DNA binding, inhibitor | hepatitis C virus | 100 µM, added: Cy5-dT15 DNA |  | inhibition | 1%
CC(=O)N[C@H](C(=O)N[C@@H](CC(N)=O)C(=O)N[C@@H](CCCCN)C(=O)N1CCC[C@H]1C(=O)N[C@@H](CC(C)C)C(=O)N1CCC[C@H]1C(=O)N1CCC[C@H]1C(=O)N[C@@H](CC(C)C)C(=O)N1CCC[C@H]1C(=O)N[C@H](C(=O)N[C@@H](C)C(N)=O)C(C)C)C(C)C | Tyrosine-protein kinase Fyn, SH3 domain (FYN, Homo sapiens, UniProt P06241) | ligand binding, FTIR spectroscopy, measured: asymmetric stretch band B |  | pH 7.0, FYN complex, added: 4 mM peptide |  | wavenumber | 2243.6 ± 0.4 cm⁻¹
O=C(C[C@@H](C(F)F)n1ccc(F)n1)N1CCC(O)(Cn2cnc3c(cnn3-c3ccc(F)cc3)c2=O)CC1 | USP7 (Homo sapiens, UniProt Q93009, V517F) | enzyme activity, inhibitor, Ub-AMC |  |  | relative to: V517F over wild type | IC50 ratio | 2340
CCC1(O)CCCN(C(=O)c2ccc(-c3ccc(F)c(NC(=O)CCl)c3)cc2)C1 (centres unmarked) | DNA dC->dU-editing enzyme APOBEC-3B, C-terminal domain (Homo sapiens, UniProt Q9UH17) | covalent modifier, intact protein mass spectrometry, measured: adduct +26487 Da |  | 250 µM, 3 h, 10-fold molar excess |  | protein adduct | 0%
C=CC(=O)N1CCC[C@@H](n2nc(-c3ccc(Oc4ccccc4)cc3)c3c(N)ncnc32)C1 | SRMS (Homo sapiens, UniProt Q9H3Y6) |  |  | 1 µM |  | remaining activity | 87.2%
COc1cc(Nc2ncc3c(n2)-c2ccc(Cl)cc2C(c2c(F)cccc2OC)=NC3)ccc1C(=O)O | MAPKAPK2 | kinase activity |  | 1 µM |  | remaining activity | 111%
Cc1ccc(CN(C(=O)c2cc3cccn3cn2)C2CCc3ccccc32)cc1 (centres unmarked) | WD repeat-containing protein 91 WD40 domain, residues 392–747 | binding, SPR single-concentration screen |  | 45 µM |  | SPR response | 37.8 RU and 16.9 RU
O=c1c(O)c(-c2ccc(O)c(O)c2)oc2cc(O)cc(O)c12 | ESR1 | array formation | PRL-HeLa |  | relative to: EC50 ERβ over EC50 ERα | selectivity ratio | 5.26
CC1=C(CC(=O)O)c2cc(F)ccc2/C1=C\c1ccc([S+](C)[O-])cc1 (centres unmarked) | Genome polyprotein NS3 helicase domain | DNA binding, inhibitor | hepatitis C virus | 100 µM, added: Cy5-dT15 DNA |  | inhibition | 1%
O=C(c1cc2cccn2cn1)N1CCN(C(=O)c2ccoc2)C(c2ccc(F)cc2)C1 (centres unmarked) | WD repeat-containing protein 91 WD40 domain, residues 392–747 | binding, SPR single-concentration screen |  | 45 µM |  | SPR response | -8.3 RU and -0.8 RU

Excerpt of the above:
SMILES | target | test | system | conditions | scale | endpoint | result
O=C(COP(=O)(O)O)[C@@H](O)[C@H](O)[C@H](O)COP(=O)(O)O | Structural maintenance of chromosomes protein 1A (Homo sapiens, UniProt Q14683) | thermal proteome profiling, measured: SMC1A | HepG2 cell lysate | concentration not given, 57 over 37 °C, mean | relative to: compound over control | thermal stability ratio | 0.632
O=C(C[C@@H](C(F)F)n1ccc(F)n1)N1CCC(O)(Cn2cnc3c(cnn3-c3ccc(F)cc3)c2=O)CC1 | USP7 (Homo sapiens, UniProt Q93009, V517F) | enzyme activity, inhibitor, Ub-AMC |  |  | relative to: V517F over wild type | IC50 ratio | 2340
NS(=O)(=O)Cc1noc2ccccc12 | Genome polyprotein NS3 helicase domain | DNA binding, inhibitor | hepatitis C virus | 100 µM, added: Cy5-dT15 DNA |  | inhibition | 1%
